{"data": "Values quoted from earlier work, collected from citations in different studies", "note": "Compare with care: the assays were run in different laboratories. ± gives the spread as reported. *: point of attachment."}
{"Molecule": "CCCCC/C=C\\C[C@H](O)/C=C/C=C\\C/C=C\\CCCC(=O)O", "tested on": "human 15-lipoxygenase-1", "test": "substrate specificity kcat/KM AA/LA", "quantity": "AC50", "result": "1.1 ± 0.1 µM"}
{"Molecule": "Nc1nc2c(nc(Br)n2[C@@H]2O[C@@H]3COP(=O)(O)O[C@H]3[C@H]2O)c(=O)[nH]1", "tested on": "PDE10", "test": "cyclic nucleotide hydrolysis, substrate or inhibitor, isothermal titration calorimetry", "quantity": "Km or Ki", "result": "23.7 µM"}
{"Molecule": "CC(=O)c1cccc(N[C@H]2[C@H](N)[C@@](NC(=O)N(C)C)([C@H](C)O)[C@@](C)(O)[C@@]2(O)COC(=O)c2c(C)cccc2O)c1", "tested on": "OVCAR-3 (ovarian cancer)", "test": "cell growth", "conditions": "NCI screen data", "quantity": "GI50", "result": "< 0.1 µM"}
{"Molecule": "COc1ccc(N2CCC3(CCN(CCCSc4nnc(-c5ccccc5)n4C)CC3)CC2)cc1", "tested on": "DRD3 (Homo sapiens, UniProt P35462)", "scale": "reference: D2 Ki over D3 Ki", "quantity": "selectivity ratio", "result": "~1000"}
{"Molecule": "Nc1ncnc2c1ncn2[C@@H]1O[C@H](COP(=O)(O)OP(=O)(O)O)[C@@H](O)[C@H]1O", "tested on": "GLUD1 (Homo sapiens, UniProt P00367)", "test": "enzyme activity, allosteric activator", "conditions": "reductive amination", "quantity": "EC50", "result": "12 ± 4.5 µM"}
{"Molecule": "Cc1ccccc1-c1cc(N2CCN(C)CC2)ncc1N(C)C(=O)C(C)(C)c1cc(C(F)(F)F)cc(C(F)(F)F)c1", "test system": "healthy volunteers", "conditions": "oral, 450 mg single dose, mean, added: palonosetron 0.75 mg", "quantity": "half-life", "result": "88.1 h"}
{"Molecule": "Nc1ncnc2c1ncn2[C@@H]1O[C@H](COP(=O)(O)OP(=O)(O)OP(=O)(O)O)[C@@H](O)[C@H]1O", "tested on": "pcrA (Geobacillus stearothermophilus, UniProt P56255)", "test": "substrate", "quantity": "Km", "result": "~3 µM"}
{"Molecule": "Oc1ccc(/C=C/c2cccc3ccccc23)cc1O", "tested on": "Transthyretin, fibrils (TTR, Homo sapiens, UniProt P02766)", "test": "fluorescence", "scale": "reference: native over misfolded protofibrillar TTR", "quantity": "emission maximum shift", "result": "> 100 nm"}
{"Molecule": "CCCS(=O)(=O)Nc1ccc(F)c(C(=O)c2c[nH]c3ncc(-c4ccc(Cl)cc4)cc23)c1F", "tested on": "hiPSC-derived cardiomyocytes", "test": "contractility", "conditions": "72 h", "quantity": "lowest effective concentration", "result": "11 µM"}
{"Molecule": "N[C@@H](CCC(=O)O)C(=O)O", "tested on": "vesicular glutamate transporter", "test": "substrate", "quantity": "Km", "result": "1000 to 3000 µM"}
{"Molecule": "O=C1c2ccccc2-c2c1c1ccc([N+](=O)[O-])cc1c(=O)n2C[C@H](O)CO", "tested on": "prostate DU-145", "test": "cell growth", "quantity": "GI50", "result": "0.04 µM"}
{"Molecule": "O=C(Nc1ncnc2c1ncn2[C@@H]1O[C@@H]2COP(=O)(O)OC2C1O)c1ccccc1 (stereo in doubt)", "tested on": "PDE1B", "test": "cyclic nucleotide hydrolysis, substrate or inhibitor, isothermal titration calorimetry", "quantity": "Km or Ki", "result": "9.86 µM"}
{"Molecule": "O=C(O)c1cc2cc(Br)ccc2oc1=O", "tested on": "Ionotropic glutamate receptor NMDA 1/2D (Rattus norvegicus, UniProt P35439+Q62645)", "conditions": "concentration not given", "quantity": "inhibition", "result": "100%"}
{"Molecule": "Nc1nc2c(nc(Sc3ccc(Cl)cc3)n2C2O[C@@H]3COP(=O)(O)O[C@H]3[C@H]2O)c(=O)[nH]1 (stereo in doubt)", "tested on": "PDE1A", "test": "cyclic nucleotide hydrolysis, substrate or inhibitor, isothermal titration calorimetry", "quantity": "Km or Ki", "result": "16.7 µM"}
{"Molecule": "CCC1=C(O)c2c(oc(-c3csc4ccccc34)cc2=O)C(CC)(CC)C1=O", "tested on": "Tubulin alpha-1B chain/TUBB2B (Bos taurus, UniProt P81947+Q6B856)", "conditions": "concentration not given", "quantity": "inhibition", "result": "78%"}
{"Molecule": "Nc1nc(N)c2c(n1)[nH]c1cccc(Sc3ccccc3)c12", "tested on": "KDR (Homo sapiens, UniProt P35968)", "test": "kinase activity, inhibitor", "quantity": "IC50", "result": "22.6 ± 4.5 µM"}
{"Molecule": "CN(C)C/C=C/C(=O)Nc1cc2c(Nc3ccc(F)c(Cl)c3)ncnc2cc1O[C@H]1CCOC1", "tested on": "hiPSC-derived cardiomyocytes", "test": "contractility", "conditions": "72 h", "quantity": "lowest effective concentration", "result": "1.65 µM"}
{"Molecule": "NC(=O)c1ccc[n+]([C@@H]2O[C@H](COP(=O)([O-])OP(=O)(O)OC[C@H]3O[C@@H](n4cnc5c(N)ncnc54)[C@H](O)[C@@H]3O)[C@@H](O)[C@H]2O)c1", "tested on": "IMPDH2 (Homo sapiens, UniProt P12268)", "test": "uncompetitive substrate inhibition", "conditions": "dinucleotide intercept constant", "quantity": "Kii", "result": "0.59 mM"}
{"Molecule": "CNC(=O)[C@@]12C[C@@H]1[C@@H](n1cnc3c(NC)nc(C#Cc4ccc(Cl)s4)nc31)[C@H](O)[C@@H]2O", "tested on": "ADORA2A (Homo sapiens, UniProt P29274)", "conditions": "10 µM", "quantity": "inhibition", "result": "24 ± 13%"}
{"Molecule": "COc1cc(O)c(C(=O)/C=C/c2ccccc2)c(OC)c1", "tested on": "NF-κB", "test": "reporter gene and DNA binding, inhibitor", "conditions": "added: TNFα", "quantity": "effective concentration", "result": "175 µM"}
{"Molecule": "C[C@@]12CC[C@H]3c4ccc(O)cc4CC[C@@H]3[C@H]1CC[C@H]2O (single isomer, unassigned)", "tested on": "HT-22", "test": "cell protection", "conditions": "added: iodoacetic acid 20 µM", "quantity": "EC50", "result": "7.11 µM"}
{"Molecule": "CC(=O)[C@H]1CC[C@H]2[C@@H]3CCC4=CC(=O)CC[C@]4(C)[C@H]3CC[C@]12C", "tested on": "CYP17A1 (Homo sapiens, UniProt P05093)", "test": "17alpha-hydroxylation, substrate", "quantity": "Km", "result": "10.5 ± 1.7 µM"}
{"Molecule": "CO[C@@H]1[C@@H]2OP(=O)(O)OC[C@H]2O[C@H]1n1c(Sc2ccc(Cl)cc2)nc2c(N)ncnc21", "tested on": "PDE2A", "test": "cyclic nucleotide hydrolysis, substrate or inhibitor, isothermal titration calorimetry", "quantity": "Km or Ki", "result": "14.5 µM"}
{"Molecule": "CC[C@H](C)[C@H](NC(=O)[C@H](CCCCN)NC(=O)[C@H](Cc1c[nH]cn1)NC(=O)[C@@H](N)CCCNC(=N)N)C(=O)N[C@@H](CC(C)C)C(=O)N[C@@H](Cc1c[nH]cn1)C(=O)N[C@@H](CCCNC(=N)N)C(=O)N[C@@H](CC(C)C)C(=O)N[C@@H](CC(C)C)C(=O)N[C@@H](CCC(N)=O)C(=O)N[C@@H](CCC(=O)O)C(=O)NCC(=O)N[C@@H](CO)C(=O)O", "tested on": "Nuclear receptor subfamily 1 group I member 3, with RXR (Mus musculus, UniProt O35627)", "test": "ITC", "conditions": "concentration not given, pH 7.2, 25 °C", "quantity": "binding stoichiometry", "result": "1.03 ± 0.06"}
{"Molecule": "CCc1nc(N)nc(N)c1-c1ccc(Cl)cc1", "tested on": "dihydrofolate reductase", "scale": "reference: mammalian over Plasmodium enzyme", "quantity": "selectivity ratio", "result": 1000}
{"Molecule": "C[C@@H]1[C@H](c2c(F)ccc(F)c2F)C[C@H](NC(=O)c2cnc3c(c2)C[C@@]2(C3)C(=O)Nc3ncccc32)C(=O)N1CC(F)(F)F", "tested on": "CGRP receptor", "test": "inhibitor", "test system": "plasma", "quantity": "EC90", "result": "0.014 µM"}
{"Molecule": "Nc1cc[nH]c(=O)n1", "tested on": "nucleoside transporter C1", "test system": "Trypanosoma brucei, procyclic forms", "quantity": "Km", "result": "0.048 ± 0.009 µM"}
{"Molecule": "O=P(O)(O)OC[C@H]1O[C@H](OP(=O)(O)OP(=O)(O)O)[C@H](O)[C@@H]1O", "tested on": "Trypanosoma cruzi HGPRT isoform A", "test": "enzyme activity, substrate", "conditions": "IMP formation, added: hypoxanthine 60 µM", "quantity": "Km", "result": "31 ± 5 µM"}
{"Molecule": "O=P(O)(O)O[C@@H]1[C@H](O)[C@H](O)[C@@H](OP(=O)(O)O)[C@H](OP(=O)(O)O)[C@H]1O", "tested on": "IP3R1 N-terminal domain residues 1-604", "test": "binding, FP competition", "conditions": "37 °C", "quantity": "Kd", "result": "0.49 ± 0.04 µM"}
{"Molecule": "Cbz-Phe-Arg-{AMC} (Z-FR-AMC; Cbz = O=C(OCc1ccccc1)*; AMC = Cc1cc(=O)oc2cc(N*)ccc12)", "tested on": "Chymotrypsinogen A, activated (alpha-chymotrypsin) (Bos taurus, UniProt P00766)", "test": "substrate", "quantity": "Km", "result": "180 µM"}
{"Molecule": "O=c1c2nc(Br)n3c2ncn1[C@@H]1O[C@H](COP(=O)(O)OP(=O)(O)OC[C@H]2O[C@@H]3[C@H](O)[C@@H]2O)[C@@H](O)[C@H]1O", "tested on": "cADPR receptor, sea urchin", "test system": "sea urchin egg homogenate", "conditions": "concentration not given", "quantity": "activity", "result": "inactive"}
{"Molecule": "O=c1cc(-c2ccccc2)oc2cc(O)c(O)c(O)c12", "tested on": "catechol O-methyltransferase", "test": "substrate", "quantity": "Km", "result": "1970 ± 389 µM"}
{"Molecule": "Nc1ncnc2c1nc(Br)n2[C@@H]1O[C@@H]2COP(=O)(O)O[C@H]2[C@H]1O", "tested on": "PDE1B", "test": "cyclic nucleotide hydrolysis, substrate or inhibitor, isothermal titration calorimetry", "quantity": "Km or Ki", "result": "63.6 µM"}
{"Molecule": "CCOC(=O)c1ncn2c1CN(C)C(=O)c1cc(F)ccc1-2", "tested on": "human GABAA α4β3γ2 receptor", "test": "modulator, two-electrode voltage clamp", "test system": "Xenopus oocytes", "conditions": "saturating, added: GABA EC50", "scale": "reference: GABA response", "quantity": "efficacy", "result": "132 ± 6%"}
{"Molecule": "O=C1c2ccccc2-c2c1c1ccc([N+](=O)[O-])cc1c(=O)n2CCCn1ccnc1", "tested on": "renal SN12C", "test": "cell growth", "quantity": "GI50", "result": "0.015 µM"}
{"Molecule": "COc1ccc(/C=C\\c2cc(OC)c(OC)c(OC)c2)cc1O", "tested on": "tubulin", "test": "[3H]colchicine binding, inhibitor", "conditions": "1.0 µM, added: 1.0 µM tubulin, 5.0 µM [3H]colchicine", "quantity": "inhibition", "result": "75 to 85%"}
{"Molecule": "C[C@]12CC=C3c4ccc(O)cc4CC[C@H]3[C@@H]1CC[C@@H]2O", "tested on": "HT-22", "test": "cell protection", "conditions": "added: glutamate 10 mM", "quantity": "EC50", "result": "1.02 µM"}
{"Molecule": "Nc1nc2c(ncn2[C@@H]2O[C@@H]3COP(=O)(O)O[C@H]3[C@H]2O)c(=O)[nH]1", "tested on": "PDE5", "test": "cyclic nucleotide hydrolysis, substrate or inhibitor, isothermal titration calorimetry", "quantity": "Km or Ki", "result": "2.01 µM"}
{"Molecule": "O=P(O)(O)O", "tested on": "ADP-forming acetyl-CoA synthetase (Entamoeba histolytica, UniProt C4LUV9)", "test": "substrate", "quantity": "Km", "result": "1770 ± 180 µM"}
{"Molecule": "O=c1c2nc(Br)n([C@@H]3O[C@@H]4COP(=O)(O)O[C@H]4[C@H]3O)c2nc2[nH]c(-c3ccccc3)cn12", "tested on": "PDE4D", "test": "cyclic nucleotide hydrolysis, substrate or inhibitor, isothermal titration calorimetry", "quantity": "Km or Ki", "result": "8.84 µM"}
{"Molecule": "O=C1c2cccc3c2[C@H](CCC3)CN1[C@@H]1CN2CCC1CC2", "test system": "healthy volunteers, plasma", "conditions": "oral, dose not given, netupitant-palonosetron combination, added: oral contraceptives", "quantity": "half-life", "result": "41.4 h"}
{"note": "Excerpt of the above:"}
{"Molecule": "CC(=O)[C@H]1CC[C@H]2[C@@H]3CCC4=CC(=O)CC[C@]4(C)[C@H]3CC[C@]12C", "tested on": "CYP17A1 (Homo sapiens, UniProt P05093)", "test": "17alpha-hydroxylation, substrate", "quantity": "Km", "result": "10.5 ± 1.7 µM"}
{"Molecule": "C[C@@]12CC[C@H]3c4ccc(O)cc4CC[C@@H]3[C@H]1CC[C@H]2O (single isomer, unassigned)", "tested on": "HT-22", "test": "cell protection", "conditions": "added: iodoacetic acid 20 µM", "quantity": "EC50", "result": "7.11 µM"}
{"Molecule": "O=c1c2nc(Br)n3c2ncn1[C@@H]1O[C@H](COP(=O)(O)OP(=O)(O)OC[C@H]2O[C@@H]3[C@H](O)[C@@H]2O)[C@@H](O)[C@H]1O", "tested on": "cADPR receptor, sea urchin", "test system": "sea urchin egg homogenate", "conditions": "concentration not given", "quantity": "activity", "result": "inactive"}
{"Molecule": "CCc1nc(N)nc(N)c1-c1ccc(Cl)cc1", "tested on": "dihydrofolate reductase", "scale": "reference: mammalian over Plasmodium enzyme", "quantity": "selectivity ratio", "result": 1000}
